Published values gathered from unrelated publications.
Compare with care: the assays were run in different laboratories. “And” joins repeats or separate records; there may be more than shown. ± gives the spread as reported.
B1: Urtica dioica agglutinin; sequence looked up; chain QRCGSQGGGGTCPALWCCSIWGWCGDSEPYCGRTCENKCWSGERSDHRCGAAVGNPPCGQDRCCSVHGWCGGGNDYCSGSKCQYRCSSSVRGPRVALSGNSTANSIGNVVVTEPLFDQMFSHRKDCPSQGFYSYHSFLVAAESFPAFGTIGDVATRKREVAAFLAHISQATSGERSDVENPHAWGLCHINTTTVTENDFCTSSDWPCAAGKKYSPRGPIQLTHNFNYGLAGQAIGEDLIQNPDLVEKDPIISFKTALWFWMSQHDNKPSCHDIVLNANSAANRIPNKGVIGNIISRAFGHDDFAVRSSSIGFYKRYCDMLGVSYGHDLKYWFDNTPSSEFQRIQMRVAA
Sequence of UniProt O43614 (whole entry, unmodified, looked up): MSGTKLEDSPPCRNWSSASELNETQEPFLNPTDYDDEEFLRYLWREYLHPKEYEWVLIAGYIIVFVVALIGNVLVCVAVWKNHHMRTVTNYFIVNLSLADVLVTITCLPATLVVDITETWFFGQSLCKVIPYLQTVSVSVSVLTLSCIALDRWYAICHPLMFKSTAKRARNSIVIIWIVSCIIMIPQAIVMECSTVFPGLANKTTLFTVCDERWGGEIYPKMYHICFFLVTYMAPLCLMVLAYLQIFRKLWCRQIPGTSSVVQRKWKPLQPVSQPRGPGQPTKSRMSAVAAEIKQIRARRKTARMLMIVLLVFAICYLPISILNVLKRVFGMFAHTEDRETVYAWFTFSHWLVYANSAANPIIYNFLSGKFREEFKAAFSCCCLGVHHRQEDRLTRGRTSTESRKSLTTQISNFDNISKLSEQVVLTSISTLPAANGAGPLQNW

Substance = caspofungin; tested on = Aspergillus fumigatus; system = mito::GFP; conditions = concentration not given, 15 min, germlings; quantity = mitochondrial fragmentation; value = 36.7% and 38.5%
Substance = pertussis toxin; test = open field test; system = humanized mice, subarachnoid haemorrhage; conditions = dose not given; quantity = distance travelled; value = 32 m and 16 m
Substance = aspterric acid; tested on = Arabidopsis thaliana; system = shoots; conditions = foliar spray, 200 µg/mL, 20 days; quantity = fresh weight; value = 389 mg and 400 mg and 390 mg
Substance = glucagon; test = ELISA; system = human, non-diabetic, femoral artery plasma; conditions = intravenous infusion, 0.12 ng/kg/min, 160 to 180 min; quantity = plasma concentration; value = 0.0718 ± 0.0033 ng/mL
Substance = KKRRRGLSRFRMGRGY; tested on = Micrococcus luteus; test = bacterial survival, plate count; system = peptide; conditions = 20 µM, 4 h, room temperature; how to read = reference: untreated control; quantity = bacterial killing; value = 100%
Substance = ILSAAWSGITSLV; tested on = Escherichia coli; test = bacterial growth, OD600 growth curve; system = peptide, K12 MG1655, MHB broth; conditions = 40 µM, 24 h, 37 °C; how to read = reference: no peptide control; quantity = relative growth rate; value = 0.134
Substance = KRRRGGRLSGFRTAVGY; tested on = Streptococcus iniae; test = bacterial survival, plate count; system = peptide; conditions = 20 µM, 4 h, room temperature; how to read = reference: untreated control; quantity = bacterial killing; value = 62.4%
Substance = ILPWDWPWWPWRR; tested on = Escherichia coli; system = peptide, K-12 MG1655, Mueller-Hinton broth; conditions = concentration not given, 37 °C, unit not given; how to read = reference: no peptide; quantity = growth rate; value = 0.00101
Substance = Polymyxin B; tested on = Pseudomonas aeruginosa; system = NCTC 13921, neutropenic CD-1 mouse, thigh infection, thigh; conditions = 25 mg/kg every 6 h, 26 h post-infection; quantity = bacterial load; value = 2.36 log10 CFU/g
Substance = CLCKKGKCGLCGK; tested on = Candida albicans; test = growth; system = peptide, ATCC 10231, potato dextrose broth; conditions = 128 µM, 30 °C; quantity = inhibition; value = 0 fraction (0-1)
Substance = Tunicamycin; tested on = human coronavirus OC43; test = virus-induced cell death; system = MRC-5; quantity = maximum inhibition; value = 11.1%
Substance = AFTCHCRR / SCYSTEYSYGTCTVMGINHRFCCL (disulfide); tested on = Acinetobacter baumannii; test = crystal violet staining; system = peptide, 19606; conditions = concentration not given; quantity = biofilm formation; value = 143% and 116% and 166% and 102%
Substance = heparin sodium; system = healthy Chinese adult volunteers; conditions = continuous intravenous infusion, 8 IU/kg/h, 5 days; quantity = subjects with abnormal liver function; value = 75%
Substance = baccatin; tested on = Bovine alphaherpesvirus 1; test = viral replication, primary screen; conditions = 5 µM, 12 h pre-incubation; quantity = inhibition; value = > 90%
Substance = ILPWGWPWWPWRR; tested on = Escherichia coli; system = peptide, K-12 MG1655, Mueller-Hinton broth; conditions = concentration not given, 37 °C, unit not given; how to read = reference: no peptide; quantity = growth rate; value = 0.556
Substance = CLCGGKGKKLGKG; tested on = Candida albicans; test = growth; system = peptide, ATCC 10231, potato dextrose broth; conditions = 128 µM, 30 °C; quantity = inhibition; value = 0 fraction (0-1)
Substance = Polymyxin B; tested on = Klebsiella pneumoniae; test = broth microdilution; system = OmpK36-truncated, KPC-2; quantity = MIC; value = 16 mg/L
Substance = Polymyxin B; tested on = Klebsiella pneumoniae; test = DCFH-DA fluorescence; system = ATCC 700603; conditions = 1 × MIC; how to read = higher = more ROS; quantity = ROS level; value = 262 a.u.
Substance = nonaarginine; tested on = PorA peptide pore; test = peptide binding, planar bilayer single-channel recording; conditions = pH 7.4, +5 mV, trans side, 150 mM KCl; quantity = Kd; value = 1.21 ± 0.1 µM
Substance = RWRYRRRGYLAMG; tested on = Pseudomonas fluorescens; test = bacterial survival, plate count; system = peptide; conditions = 20 µM, 4 h, room temperature; how to read = reference: untreated control; quantity = bacterial killing; value = 28.4%
Substance = Ro 31-8220; tested on = infectious bursal disease virus; conditions = concentration not given; quantity = viral titre; value = decreased
Substance = thiostrepton; tested on = Streptococcus pneumoniae; system = penicillin-intermediate; quantity = MIC; value = ≤ 0.001 mg/L
Substance = ILPWWWPWWPWRR; tested on = Escherichia coli; system = peptide, K-12 MG1655, Mueller-Hinton broth; conditions = concentration not given, 37 °C, unit not given; how to read = reference: no peptide; quantity = growth rate; value = 0.426
Substance = capreomycin sulfate; system = guinea pig, serum; conditions = insufflation, dose not given, dry powder combination single dose; quantity = Tlag; value = 0 min
Substance = RNA 1 AACAAAACAAAAUAGCACCGUAAAGC / RNA 2 GCUUUACGGUGCUA (dsRNA; 14 bp duplex, 5' 12 nt overhang); tested on = DEAD-box ATP-dependent RNA helicase RhpA 1-392 (Pseudomonas aeruginosa, UniProt Q9HX66); test = fluorescence polarization; system = double-stranded RNA; quantity = Kd; value = 0.218 µM
Substance = Teicoplanin A2-2; tested on = Streptococcus pneumoniae; system = penicillin-intermediate; quantity = MIC; value = 0.12 mg/L
Substance = HVLVMSATRR; system = peptide, C57BL/6J mice, male, blood; conditions = subcutaneous osmotic pump, 3 mg/kg/day peptide basis, 8 weeks; quantity = monocytes; value = 7% and 2% and 1% and 5%
Substance = HNP1 R15A; tested on = Acinetobacter baumannii; test = crystal violet staining; system = 19606; conditions = concentration not given; quantity = biofilm formation; value = 366% and 290% and 329%
Substance = colistin; tested on = Aspergillus fumigatus; system = conidia; conditions = 20 µM, together with: caspofungin 0.2 µg/mL; how to read = reference: caspofungin alone; quantity = CFU relative to caspofungin alone; value = 1.2 and 1.11 and 1.64
Substance = RKYKKRGYQAVQ; tested on = Streptococcus iniae; test = bacterial survival, plate count; system = peptide; conditions = 20 µM, 4 h, room temperature; how to read = reference: untreated control; quantity = bacterial killing; value = 54.2%
Substance = hexaarginine; tested on = PorA peptide pore; test = peptide binding, planar bilayer single-channel recording; conditions = pH 7.4, -5 mV, cis side, 150 mM KCl; quantity = Kd; value = 2.85 ± 0.3 µM
Substance = KRRRRGLPRLGMVTGY; tested on = Micrococcus luteus; test = bacterial survival, plate count; system = peptide; conditions = 20 µM, 4 h, room temperature; how to read = reference: untreated control; quantity = bacterial killing; value = 48.9%
Substance = ILPWLWPWWPWRR; tested on = Escherichia coli; system = peptide, K-12 MG1655, Mueller-Hinton broth; conditions = concentration not given, 37 °C, unit not given; how to read = reference: no peptide; quantity = growth rate; value = 0.000307
Substance = Neurotensin; tested on = HCRTR2 (Homo sapiens, UniProt O43614, del254-292/I293E/K294R/L160H/M161K/Q254E); test = sensor fluorescence, fluorescence imaging; system = HEK293T; conditions = concentration not given, unit not given; how to read = reference: baseline; quantity = ΔF/F0; value = -0.134 and 0.956 and 2.26 and 1.51 and -1.96
Substance = gabaculine; tested on = Toxoplasma gondii; test = parasite growth, fluorescence; system = HFF, RH type I YFP; conditions = 72 h; quantity = IC50; value = > 1 µM
Substance = VRRRRVSRFGRGRGY; tested on = Streptococcus iniae; test = bacterial survival, plate count; system = peptide; conditions = 20 µM, 4 h, room temperature; how to read = reference: untreated control; quantity = bacterial killing; value = 61.3%
Substance = amyloid β-peptide (1–28); test = substrate, LC-MS; system = phosphate buffer; conditions = 10 µM, 2 h, pH 7.4, 25 °C, together with: imprinted nanoparticle 1 equiv; quantity = remaining substrate; value = 82.4 ± 3.2%
Substance = insulin human; test = measured: DLG4; system = mouse, EcoHIV-infected, brain; conditions = ip, dose not given, together with: insulin; how to read = reference: PBS-treated; quantity = mRNA fold change; value = 0.94
Substance = ILPWCWPWWPWRR; tested on = Escherichia coli; system = peptide, K-12 MG1655, Mueller-Hinton broth; conditions = concentration not given, 37 °C, unit not given; how to read = reference: no peptide; quantity = growth rate; value = 0.00124
Substance = RRNQKRKRGYNSV; tested on = Streptococcus iniae; test = bacterial survival, plate count; system = peptide; conditions = 20 µM, 4 h, room temperature; how to read = reference: untreated control; quantity = bacterial killing; value = 56.5%
Substance = GLCGKGGKCCCGC; tested on = Candida albicans; test = growth; system = peptide, ATCC 10231, potato dextrose broth; conditions = 128 µM, 30 °C; quantity = inhibition; value = 0 fraction (0-1)
Substance = Polymyxin B; tested on = Pseudomonas aeruginosa; test = broth microdilution; system = P1 clinical isolate; conditions = 20 h; quantity = MIC; value = 2 mg/L
Substance = Polymyxin B; tested on = Escherichia coli; system = KCTC 1682; conditions = 16 h, 37 °C, Mueller-Hinton broth; quantity = MIC; value = 2 µM
Substance = DPDPE; test = RP-HPLC; system = HALO Peptide ES-C18 column; conditions = 25 µM, acetic acid/acetonitrile, 10 min gradient; quantity = retention time; value = 5.33 min
Substance = B1 (Urtica dioica agglutinin); tested on = feline infectious peritonitis virus; test = viral replication; system = CRFK; quantity = EC50; value = 1.8 mg/L

A few entries again:
Substance = hexaarginine; tested on = PorA peptide pore; test = peptide binding, planar bilayer single-channel recording; conditions = pH 7.4, -5 mV, cis side, 150 mM KCl; quantity = Kd; value = 2.85 ± 0.3 µM
Substance = CLCKKGKCGLCGK; tested on = Candida albicans; test = growth; system = peptide, ATCC 10231, potato dextrose broth; conditions = 128 µM, 30 °C; quantity = inhibition; value = 0 fraction (0-1)
Substance = Neurotensin; tested on = HCRTR2 (Homo sapiens, UniProt O43614, del254-292/I293E/K294R/L160H/M161K/Q254E); test = sensor fluorescence, fluorescence imaging; system = HEK293T; conditions = concentration not given, unit not given; how to read = reference: baseline; quantity = ΔF/F0; value = -0.134 and 0.956 and 2.26 and 1.51 and -1.96
Substance = amyloid β-peptide (1–28); test = substrate, LC-MS; system = phosphate buffer; conditions = 10 µM, 2 h, pH 7.4, 25 °C, together with: imprinted nanoparticle 1 equiv; quantity = remaining substrate; value = 82.4 ± 3.2%
Substance = ILPWLWPWWPWRR; tested on = Escherichia coli; system = peptide, K-12 MG1655, Mueller-Hinton broth; conditions = concentration not given, 37 °C, unit not given; how to read = reference: no peptide; quantity = growth rate; value = 0.000307
Substance = RNA 1 AACAAAACAAAAUAGCACCGUAAAGC / RNA 2 GCUUUACGGUGCUA (dsRNA; 14 bp duplex, 5' 12 nt overhang); tested on = DEAD-box ATP-dependent RNA helicase RhpA 1-392 (Pseudomonas aeruginosa, UniProt Q9HX66); test = fluorescence polarization; system = double-stranded RNA; quantity = Kd; value = 0.218 µM
